Assay results from different studies.
Several values in a cell are separate wells, animals, samples, runs or records. Numbers after ± are the reported error.
CES3: Carboxylesterase 3 (CES3, Homo sapiens, UniProt Q6UWW8)
Proteasome subunit alpha type-2/Proteasome subunit alpha type-6 20S proteasome: Proteasome subunit alpha type-2/Proteasome subunit alpha type-6, 20S proteasome (Homo sapiens, UniProt P25787+P60900)
PPO3: PPO3 (Agaricus bisporus, UniProt C7FF04)
T1: DNA G4 pilE G-quadruplex (Neisseria gonorrhoeae); GGGTGGGTTGGGTGGG
T2: dsDNA; GCGCGAATTCGCGC
T3: dsDNA, hairpin; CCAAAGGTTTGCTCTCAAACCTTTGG

For CC1c2c(F)cccc2CCN1CC(=O)O (stereo not shown), binding read “active” (DUSP3 (Homo sapiens, UniProt P51452); ligand-observed 19F NMR; concentration not given, with: DUSP3 4 or 8 µM).
For CCN(CC)c1ccc2cc(/C=C3\N=C(C)N(C)C3=O)c(=O)oc2c1, the Kd was 1370 nM (T1, DNA G4 pilE G-quadruplex (Neisseria gonorrhoeae); fluorescence titration; pH 7.4, K+ 100 mM).
With Cc1cccc(C)c1NC(=O)CC(C)NCc1cccc2ccccc12 (stereo not shown) the Hill coefficient was 1.7 (SCN4A (Homo sapiens, UniProt P35499, F1586C); tonic block of sodium current, whole-cell patch clamp; HEK293; 0.1 Hz stimulation).
Under “maximal single-turnover rate”, O=c1c2ccccc2n(CC2CC2)c(=O)n1O is recorded as 1.52 ± 0.09 min⁻¹ (Flap endonuclease 1 (Homo sapiens, UniProt P39748); inhibitor; 100 µM, 37 °C, full-length enzyme, with: double-flap substrate DF1).
COC(=O)CC1N=C(c2ccc(Cl)cc2)c2c(sc(C(=O)NCCCCCNc3cccc4c3C(=O)N(C3CCC(=O)NC3=O)C4=O)c2C)-n2c(C)nnc21 (stereo not shown) — result for “log2 fold change”: -1.99 (BRD4 (Homo sapiens, UniProt O60885); degrader, TMT proteomics; MM1.S; 0.1 µM, 4 h; reference: DMSO).
C[n+]1c(C=Cc2ccc(O)c(C=Cc3sc4ccccc4[n+]3C)c2)sc2ccccc21: binding “binds weakly” (T2, dsDNA; fluorescence enhancement).
The melting temperature of Cc1cc(N2CC[C@](C#N)(C3(C)CC3)C2=O)cc(C(=O)NCc2cc(F)cc(-c3cnn(C)c3)c2)n1 is reported as 70.8 °C (Proline--tRNA ligase (Plasmodium falciparum, UniProt Q8I5R7); thermal shift; with: L-proline and ATP 2 mM).
The Kd of CC(C)n1c(-c2ccc(C(=N)N)s2)nc2cc3nc(-c4ccc(C(=N)N)s4)n(C(C)C)c3cc21 is reported as 286 nM (T3, dsDNA, hairpin; SPR; pH 7.4, Na+ 100 mM).
CCNC(=O)[C@H](CC(C)C)NC(=O)[C@H](Cc1c[nH]cn1)NC(=O)CNC(=O)[C@@H](NC(=O)[C@H](C)NC(=O)[C@H](Cc1c[nH]c2ccccc12)NC(=O)[C@H](CCC(N)=O)NC(=O)[C@H](N)Cc1ccccc1)C(C)C has a calcium release of 22.3 ± 16.8 RFU (GRPR (Homo sapiens, UniProt P30550); FLIPR calcium; PC-3; 5 nM).
COc1ccc(NC(=O)c2ccccc2)c(C)n1 gave a specific activity of less than 1 pmol/min/µg (CES3; substrate; 50 µM, pH 8, 37 °C, enzyme purity 3%).
O=C(CN1CCOc2ccccc21)N(c1ccc(F)cc1)c1ccc(F)cc1 has an EC200 of 8 ± 0.6 µM (Proteasome subunit alpha type-2/Proteasome subunit alpha type-6 20S proteasome; proteolysis, activator, fluorogenic peptide; purified 20S proteasome; with: Suc-LLVY-AMC, Z-LLE-AMC, Boc-LRR-AMC).
O=C([O-])CN(CCN(CC(=O)[O-])Cc1cc(CCC(=O)NCCCCCC(=O)NCCCC[C@H](NC(=O)N[C@@H](CCC(=O)O)C(=O)O)C(=O)O)ccc1O)Cc1cc(CCC(=O)O)ccc1[O-].[68Ga+3]: “tumour-to-normal tissue ratio” 2.2 ± 1.96 (FOLH1 (Homo sapiens, UniProt Q04609); PET/CT; prostate cancer patients, primary prostate cancer lesions; reference: primary lesions over salivary glands).
For Nc1ncnc2c1ncn2C1OC(COP(=O)(O)OP(=O)(O)OCC2OC(O)C(O)C2O)C(O)C1O (stereo not shown), “maximal open probability” read roughly 0.038 (TRPM2 (Nematostella vectensis, UniProt A7T1N0, Y264A); activator, inside-out patch clamp; Nematostella vectensis TRPM2 Y264A; upper estimate, no added PIP2, with: 125 µM Ca2+).
With CC(C)C[C@H](NC(=O)[C@H](CCCNC(=N)N)NC(=O)[C@@H](N)CS)C(=O)N[C@@H](CC(N)=O)C(=O)O the remaining activity was 79.5% (PPO3; enzyme activity, inhibitor; 100 µM).
For O=C(Cn1ccc2ccc(Cl)cc21)N(c1ccc(F)cc1)c1ccc(F)cc1, “maximum fold increase” read 4 ± 1.4 (Proteasome subunit alpha type-2/Proteasome subunit alpha type-6 20S proteasome; proteolysis, activator, fluorogenic peptide; purified 20S proteasome; up to 30 µM, with: Suc-LLVY-AMC, Z-LLE-AMC, Boc-LRR-AMC; reference: vehicle).
CCC1(O)CCCN(C(=O)c2ccc(-c3ccc(F)c(C(N)=O)c3)cc2)C1 (stereo not shown) gave a signal attenuation of 43.7% and 44% (DNA dC->dU-editing enzyme APOBEC-3B, C-terminal domain (Homo sapiens, UniProt Q9UH17); binding, 1H CPMG NMR; 20 µM protein).
With Cc1ncsc1-c1ccc([C@@H]2CCCCNC(=O)C[C@@H]3N=C(c4ccc(cc4)OCCCCC(=O)N[C@@H](C(C)(C)C)C(=O)N4C[C@H](O)C[C@H]4C(=O)N2)c2c(sc(C)c2C)-n2c(C)nnc23)cc1 the degradation was 85% (Bromodomain-containing protein 4, short isoform (BRD4, Homo sapiens, UniProt O60885); degrader, immunoblotting, item: BRD4 short isoform; PC-3; 100 nM, 24 h).
For CC1=C(/C=C/C(C)=C/C=C/C(C)=C/C=O)C(C)(C)CCC1, “association constant K4” read 2e+09 M^-n (CNGA1 (Bos taurus, UniProt Q00194); channel binding, allosteric model fit; open channel).
O=C(O)Cc1cccc(O)c1 has a ΔG of -6.07 ± 0.09 kcal/mol (p-hydroxyphenylacetate 3-hydroxylase, reductase component (C1-hpah, Acinetobacter baumannii, UniProt Q6Q271); ITC; pH 7).
CCC(C)/C=C/C(C)=C\C=C\C(C)=C\C=O (stereo not shown) gave a retinal released of roughly 5% (Rhodopsin, apoprotein (opsin) (RHO, Bos taurus, UniProt P02699); 2 h, dark, with: 40 mM hydroxylamine).
With CN(C)c1ccc(-c2cc3cc(I)ccc3o2)cn1 the Bmax was 7130 ± 943 pmol/mg protein (Islet amyloid polypeptide, aggregated (IAPP, Homo sapiens, UniProt P10997); saturation binding).
The inhibition of C[C@@]12CC[C@@H]3c4cc(Br)c(O)c(Br)c4CC[C@H]3[C@@H]1CCC2=O is reported as 88.7% (AKR1C1 (Homo sapiens, UniProt Q04828); enzyme activity, inhibitor, absorbance; 100 µM, pH 9).
CC[C@H](C)[C@H](NC(=O)[C@H](CCCCN)NC(=O)[C@H](C)NC(=O)[C@@H](NC(=O)[C@H](CCC(=O)O)NC(=O)[C@H](CCC(=O)O)NC(=O)[C@H](CCC(=O)O)NC(=O)[C@H](CO)NC(=O)[C@H](CC(C)C)NC(=O)[C@H](CC(=O)O)NC(=O)[C@H](CC(C)C)NC(=O)CNC(=O)[C@H](CCCNC(=N)N)NC(=O)[C@H](CC(C)C)NC(=O)[C@H](CO)NC(=O)CNC(=O)CNC(=O)CNC(=O)CCCC[C@@H]1SC[C@@H]2NC(=O)N[C@@H]21)C(C)C)C(=O)N[C@@H](CC(C)C)C(=O)N[C@@H](CC(=O)O)C(=O)N[C@@H](CCC(=O)O)C(=O)N[C@H](C(=O)N[C@H](C(=O)N[C@@H](CCCCN)C(=O)N[C@@H](CC(=O)O)C(=O)O)C(C)C)[C@@H](C)CC gave a Kd ratio of 11 (Fab B11 antibody (human); binding, biolayer interferometry; reference: alanine mutant over wild type).
With CC(C)C[C@H](NC(=O)[C@H](CC(C)C)NC(=O)[C@H](CCC(=O)O)NC(=O)[C@@H](N)CS)C(=O)O the remaining activity was 80.4% (PPO3; enzyme activity, inhibitor; 25 µM).
CN1CCN(CC(=O)N2N=C3/C(=C/c4ccccc4)CCCC3C2c2ccccc2)CC1 (mixture of isomers): “initial rate increase” 22% (ALOX15 (Homo sapiens, UniProt P16050); enzyme activity, activator; 10 µM, with: docosahexaenoic acid 50 µM; reference: no activator).
For [11CH3]Nc1ccc(-c2nc3ccc(O)cc3o2)cn1, “distribution volume ratio” read 1.01 ± 0.06 (APP (Homo sapiens, UniProt P05067); binding, PET, reference Logan; control subjects, lateral temporal cortex; reference: cerebellum).
CCCCCC(=O)Nc1ccc(OC)nc1C gave a specific activity of 2.3 pmol/min/µg (CES3; substrate; 50 µM, pH 8, 37 °C, enzyme purity 3%).
With CC(C)C[C@H](NC(=O)CNC(=O)[C@H](CC(C)C)NC(=O)[C@@H]1CCCN1C(=O)OCC1c2ccccc2-c2ccccc21)C(=O)N[C@@H](CCCNC(=N)N)C(=O)N[C@@H](CO)C(=O)N[C@@H](CCCCN)C(=O)O the hydrolysis product was 57% (MMP9 (Homo sapiens, UniProt P14780); substrate, HPLC; 500 µM, 72 h, pH 7.5, 37 °C).
The SUVR of [123I]c1ccc2nc(-c3ccc(-n4ccnn4)nc3)cn2c1 is reported as 0.8 ± 0.04 (Amyloid-beta precursor protein, amyloid-beta (APP, Homo sapiens, UniProt P05067); SPECT; healthy controls, cortical average; 120 to 210 min; reference: cerebellum).
For C=Cc1c(C)c2cc3nc(c4c5[nH]c(cc6nc(cc1[nH]2)C(C)=C6CC)c(C)c5C(=O)C4)[C@@H](CCC(=O)NCC(=O)N1CCC[C@H]1C(=O)N[C@@H](CC(C)C)C(=O)NCC(=O)N[C@@H](Cc1ccccc1)C(=O)N[C@@H](CCCNC(=N)N)C(=O)N[C@H](C(=O)NCC(=O)N[C@@H](CCCCNC(=O)CCCN(C)c1ccc(/N=N/c2ccc4nc5ccc(N(CC)CC)cc5[n+](-c5ccccc5)c4c2)cc1)C(N)=O)C(C)C)[C@@H]3C, the probe activation was roughly 85% (Stromelysin-2 (Homo sapiens, UniProt P09238); substrate; concentration not given, 24 h, 37 °C; reference: proteinase K).
With O=C1CCC(N2C(=O)c3cccc(NCCOCCOCCOCCOCCOCCOCCOCCNCCNc4nonc4/C(=N/O)Nc4ccc(F)c(Br)c4)c3C2=O)C(=O)N1 (stereo not shown) the Dmax was 93% (IDO1 (Homo sapiens, UniProt P14902); degrader, western blot; HeLa; 24 h, with: IFN-γ 5 ng/mL).
For COc1cc(-c2cnc3nc2NCCCNS(=O)(=O)c2cccc(c2)N3)ccc1F, “thermal shift ΔTm” read 4.3 K (EPHB1 (Homo sapiens, UniProt P54762); differential scanning fluorimetry; 10 µM; higher = stronger binding).
Under RUNX1 binding, COc1cccnc1-c1nc2cc(OC(F)(F)F)ccc2[nH]1 is recorded as “decreased” (Core-binding factor subunit beta, with RUNX1 (Homo sapiens, UniProt Q13951); co-immunoprecipitation, inhibitor; SEM; 10 µM, 6 h).
With NS(=O)(=O)c1ccc(-n2nc(C(F)(F)F)cc2-c2ccc(F)cc2F)cc1 the IC20 was 22600 nM (Prostaglandin G/H synthase 1 (Canis lupus familiaris, UniProt Q8HZR1); enzyme activity in cells, inhibitor).
With O=C(NC[C@@H](Cc1ccc(F)cc1)N1CCC(O)(C(F)(F)F)CC1)C1(c2ccc(Cl)cc2)CCCC1 the Emax was 0.41 ± 0.03 (TRPA1 (Homo sapiens, UniProt O75762); calcium influx, agonist; HEK293F transfected; unit not given; reference: AITC).
CSCC[C@H](NC(=O)[C@H](CCCCN)NC(=O)[C@H](CO)NC(=O)[C@H](CC(C)C)NC(=O)[C@H](Cc1c[nH]cn1)NC(=O)[C@H](CCCNC(=N)N)NC(=O)[C@H](CCC(=O)O)NC(=O)[C@H](CCC(=O)O)NC(=O)[C@@H]1CCCN1C(=O)[C@@H](NC(=O)[C@@H](NC(=O)[C@H](C)NC(=O)[C@H](C)NC(=O)[C@H](CC(=O)O)NC(=O)[C@@H](NC(=O)[C@H](CCC(=O)O)NC(=O)[C@@H](NC(=O)[C@@H](NC(=O)CN)C(C)C)C(C)C)C(C)C)C(C)C)[C@@H](C)OP(=O)(O)O)C(=O)N[C@@H](CCC(N)=O)C(=O)N[C@@H](CCC(N)=O)C(=O)N[C@@H](CC(N)=O)C(=O)NCC(=O)N[C@@H](Cc1ccc(O)cc1)C(=O)O has a kon of 9.1e+07 M⁻¹ s⁻¹ (Peptidyl-prolyl cis-trans isomerase NIMA-interacting 1, WW domain (PIN1, Homo sapiens, UniProt Q13526); binding, NMR lineshape; WW domain; 25 °C, trans isomer).
The ΔG of Cc1ncsc1-c1ccc(CNC(=O)[C@@H]2C[C@@H](O)CN2C(=O)[C@@H](NC(=O)COCCOCCOCCNC(=O)C[C@@H]2N=C(c3ccc(Cl)cc3)c3c(sc(C)c3C)-n3c(C)nnc32)C(C)(C)C)cc1 is reported as 22 ± 0.2 kcal/mol (VHL/BRD3, BD2; with Elongin B/C (Homo sapiens, UniProt P40337+Q15059); ITC; Brd3^BD2, ternary).

A few entries again:
For O=C(Cn1ccc2ccc(Cl)cc21)N(c1ccc(F)cc1)c1ccc(F)cc1, “maximum fold increase” read 4 ± 1.4 (Proteasome subunit alpha type-2/Proteasome subunit alpha type-6 20S proteasome; proteolysis, activator, fluorogenic peptide; purified 20S proteasome; up to 30 µM, with: Suc-LLVY-AMC, Z-LLE-AMC, Boc-LRR-AMC; reference: vehicle).
CCC1(O)CCCN(C(=O)c2ccc(-c3ccc(F)c(C(N)=O)c3)cc2)C1 (stereo not shown) gave a signal attenuation of 43.7% and 44% (DNA dC->dU-editing enzyme APOBEC-3B, C-terminal domain (Homo sapiens, UniProt Q9UH17); binding, 1H CPMG NMR; 20 µM protein).
